Assay results collected from several papers.
Each numbered part is a random draw from the data of one study; scales do not carry over between parts. Values joined by “and” are separate records of one study, mostly repeats; a detail may differ.

Series 1 — method: RNA Bind-n-Seq; molecule type: RNA; matrix: in vitro; tested at: 200 nM; setting: whole 134-nt RNA, ends assumed; together with: 150 mM KCl; reference: input library; direction: higher = stronger binding
Target: Ras GTPase-activating protein-binding protein 1, full length (G3BP1, Homo sapiens, UniProt Q13283)
Chain of UniProt Q13283 (whole entry, looked up): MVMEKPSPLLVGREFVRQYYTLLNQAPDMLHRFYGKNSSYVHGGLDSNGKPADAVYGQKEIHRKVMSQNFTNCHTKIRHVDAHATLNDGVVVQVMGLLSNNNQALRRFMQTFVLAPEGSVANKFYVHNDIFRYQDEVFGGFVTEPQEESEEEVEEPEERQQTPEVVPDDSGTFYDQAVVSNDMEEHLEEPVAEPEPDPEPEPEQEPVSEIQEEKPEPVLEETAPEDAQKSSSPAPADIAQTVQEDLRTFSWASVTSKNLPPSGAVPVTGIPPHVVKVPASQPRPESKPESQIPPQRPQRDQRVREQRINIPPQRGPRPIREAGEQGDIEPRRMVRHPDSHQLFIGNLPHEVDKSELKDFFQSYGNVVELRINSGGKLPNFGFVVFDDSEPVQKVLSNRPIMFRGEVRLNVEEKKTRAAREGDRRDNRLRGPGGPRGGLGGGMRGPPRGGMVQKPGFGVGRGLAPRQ
Shared flanks, not repeated: GGGAGUUCUACAGUCCGACGAUC … UGGAAUUCUCGGGUGUCAAGG
Strand	log2 enrichment
AGUCCUGUGCUACACAUCGUAUGUACCGAAUCAAAUUUUUAAAUUUAAACCCCCAAAAAAGUAUUAUGUUACGCCGUUCGGAUCUGCACU	-0.529
CUCAAGUCCUGUGCUACACAUCGUAUGUACCGAAUCGGAAAAAAAGGAGGUGGAAAGUAUUAUGUUACGCCGUUCGGAUCUGCACUUCCA	-0.457
UAACUUUAGAGGAGGAUCUGAUGGAUAUGGCAGUGGACGUGGAUUUGAGGAUGGCUAUAAUGGGUAUGGAGGAGGACCUGGAGGUGGCAA	0.327
CCUCAAGUCCUGUGCUACACAUCGUAUGUACCGAAUCGGGGUGGUGGGUGGGGAAAGUAUUAUGUUACGCCGUUCGGAUCUGCACUUCCA	1.02
UCCUAGUCCUAGGAAAACUCCAGUUGCCAGUGAUCAACGCCGUAGGUCCUGCAAAACAGCCCCUGCUUCCAGCAGCAAAUCUCAGACAGA	0.151
UCCUGUGCUACACAUCGUAUGUACCGAAUCGGUUUUUUGGGGUUUUUUGGGUUUUUUGGAAAGUAUUAUGUUACGCCGUUCGGAUCUGCA	-0.446
UCAAGUCCUGUGCUACACAUCGUAUGUACCGAAUCGGGCCGGGCCGGGCCGGGGAAAGUAUUAUGUUACGCCGUUCGGAUCUGCACUUCC	0.192
UAACUUUAGAGGAGGAUCUGAUGGAUAUGGCAGUGGUCGUGGAUUUGGGGAUGGCUAUAAUGGGUAUGGAGGAGGACCUGGAGGUGGCAA	0.148

Series 2 — method: protein binding microarray; molecule type: double-stranded DNA, one strand shown; matrix: in vitro; tested at: not given; reference: not given; direction: higher = stronger binding
Target: Histone acetyltransferase KAT6A, winged helix 2, GST fusion (KAT6A, Homo sapiens, UniProt Q92794, residues 85-181)
Setting: 8-mer, flanks averaged, mean of 2 arrays, mostly near background
Target sequence (chain): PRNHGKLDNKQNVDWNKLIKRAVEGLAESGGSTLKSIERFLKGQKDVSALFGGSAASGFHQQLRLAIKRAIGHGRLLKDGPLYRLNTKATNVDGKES
Strand	E-score
GCCTAACA	-0.0202
CGCCGAAG	0.207
AAAAATGG	0.0299
CGGGCCTA	-0.164
ACACCGTC	0.0261
CTAGCCCA	-0.0969
AGAAGGCC	0.0676
CGGTGGTC	-0.112

Single results of other studies
SMILES	target or system	test	test system	conditions	how to read	endpoint	result
CC(C)n1cnc(-c2ccc(F)cc2)c1-c1ncc(C(=O)Nc2ccc(N3CCN(C)CC3)cc2)[nH]1		Phase 2a trial, refers to: gamma-glutamyltransferase increased	idiopathic pulmonary fibrosis patients	30 mg once daily, grade 1 maximum intensity		patients with adverse events	0%
CC1(C)S[C@@H]2[C@H](NC(=O)Cc3ccccc3)C(=O)N2[C@H]1C(=O)O	A-375			100 µM, 60 h		viability	100%
CC(C)(C)c1cnc(CSc2cnc(NC(=O)C3CCN(CCCCSc4cccc5c4C(=O)N(C4CCC(=O)NC4=O)C5=O)CC3)s2)o1 (centres unmarked)	HH	CCK-8		200 nM		viability	1.44%
CC(C)(C(=O)O)[C@H](NC(=O)Cc1cccc(I)c1)c1ccc2oc(=O)[nH]c2c1	MEL-JUSO	Incucyte 3D growth		30 µM, 450.52 h	higher = more growth	spheroid area	2.66e+07 a.u. and 2.89e+07 a.u. and 8.3e+07 a.u. and 5.1e+07 a.u. and 2.86e+07 a.u. and 3.42e+07 a.u.

Repeated from above (series 2):
Strand	E-score
CGCCGAAG	0.207
ACACCGTC	0.0261
